Measured values of several laboratories.
Every numbered part comes from another study and shows a few of its results, in no order.

Study 1 — technique: RNA Bind-n-Seq; molecule type: RNA; medium: in vitro; concentration: not given; baseline: input RNA pool; reading: higher = stronger binding; measurement: bound/input enrichment
Target: RING finger protein unkempt homolog, zinc fingers 1-6, GST-SBP tag (UNK, Homo sapiens, UniProt Q9C0B0, residues 30-357)
Setting: RNA with constant flanks, human and mouse sites, ends assumed
All sequences stand within: GGGAGUUCUACAGUCCGACGAUC … CAACAGAGGAUUGAGCAUCA
Target sequence (chain): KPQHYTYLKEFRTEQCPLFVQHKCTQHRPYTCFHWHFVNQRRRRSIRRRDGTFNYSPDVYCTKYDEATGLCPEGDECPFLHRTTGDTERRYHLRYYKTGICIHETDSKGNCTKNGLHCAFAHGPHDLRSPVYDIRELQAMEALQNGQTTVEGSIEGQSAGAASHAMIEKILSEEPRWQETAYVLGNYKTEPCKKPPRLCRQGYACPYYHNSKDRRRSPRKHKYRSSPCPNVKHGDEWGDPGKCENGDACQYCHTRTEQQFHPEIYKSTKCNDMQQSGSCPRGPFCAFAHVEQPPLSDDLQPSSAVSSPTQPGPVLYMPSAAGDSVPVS
ACAUUUGCCUUGCCUGAAGGACCACUUGGAAAUGAGAAGGAGGAGAUUAUCCAUAUCGCUGAGGAAGAAGCUGUCAUGGAGGAGGAGGAGGAUGAGGAGGAUGAGGAGGAGGAGGAUGAG: 0.734 ratio
ACAAAUCACGCAACUGCAACACUAGAAGGCAAUCAGAUUUUUAACAACCGGUUUGGAGGCUUAUUUUUAGCAUCUGGUGUUAAUGUGACAAUGAAAGAUAACAAAAUAAUGAACAAUCAA: 0.241 ratio
GUUUUCAGUCUCUUCCUGUCCUGAGUUUUAUUAAGAAAUCCUUUUUUCUUUUUCUUCUUUUUAGGGGAUAUAUAGUAAUAUUAGUGUAAAGAUUUUAAUUUGGGCAACUUUGACUCUUAA: 5.54 ratio
GGGGGCAAGGCCAAAAAGAAGAAGUGGUCCAAAGGCAAAGUUCGGGACAAGCUCAAUAACUUAGUCUUGUUUGACAAAGCUACCUAUGAUAAACUCUGUAAGGAAGUUCCCAACUAUAAA: 0.51 ratio
AUGCGUGCUGCUGGAAGGCUCUCCGUUUCUCCGAGAACCGGGAAGGACGUUGGUGUAGAGGACAUUGGCUACCAUGAGUUCCGGUGCGCUGUUGCCCAAACCACAGAUGCGUGGUCUUCU: 0.0579 ratio
CUCCUGCUGCUGCUGCUCUGCAUCCAGCUCGGGGGAGGACAGAAGAAAAAGGAGAAUCUUUUAGCUGAAAAAGUAGAGCAGCUGAUGGAAUGGAGUUCCAGACGCUCAAUCUUCCGAAUG: 0.131 ratio
GGAGGUUCGGGGCGCGGCGUAGCGUGCGGGGCGGAGGCCCUGACCGAUUCACAAUGACAUCCUUUCAAGAAGUCCAAUUGCAGACUUCCAAUUUUGCCCAUGUCAUCUUUCAAAAUGUGG: 0.15 ratio

Study 2 — technique: RNA Bind-n-Seq; molecule type: RNA; medium: in vitro; concentration: 200 nM; setting: whole 134-nt RNA, ends assumed; together with: 150 mM KCl; baseline: input library; reading: higher = stronger binding; measurement: log2 enrichment
Target: Fragile X messenger ribonucleoprotein 1, C-terminal low-complexity region (Fmr1, Mus musculus, UniProt P35922)
All sequences stand within: GGGAGUUCUACAGUCCGACGAUC … UGGAAUUCUCGGGUGUCAAGG
AAGUCCUGUGCUACACAUCGUAUGUACCGAAUCGGGGUUUUUGGGGUGGGGUGGGGAAAGUAUUAUGUUACGCCGUUCGGAUCUGCACUU: 1.34
AGUCCUGUGCUACACAUCGUAUGUACCGAAUCGGAAAAAGGUUUUUGGUUUUUUUGGAAAGUAUUAUGUUACGCCGUUCGGAUCUGCACU: -1.32
GUCCUGUGCUACACAUCGUAUGUACCGAAUCAAAUUUAAACCCCCCCAAAUUUUUAAAAAAGUAUUAUGUUACGCCGUUCGGAUCUGCAC: 0.327
UCCUGUGCUACACAUCGUAUGUACCGAAUCGGGUUUUUUGGUUUUUUGGGGUUUUUUGGGAAAGUAUUAUGUUACGCCGUUCGGAUCUGC: -0.00607
GCAGGAAGUAAAAACAAAUGGAAAUGCUUCGGAUAGUGGCAGGGGAGGGGGUUGCUAAGGAAAGGGUGGGAUGGGAGUGGGUAAAGAGUU: 0.0666
CCUCAAGUCCUGUGCUACACAUCGUAUGUACCGAAUCGGAAAGGAAAGGUGGAAAGUAUUAUGUUACGCCGUUCGGAUCUGCACUUCCAG: 0.0757
GCAGGAAGUAAAAACAAAUGGAAAUGCUUCGGAUAGUAAAAGGGGUGGGGGUUGCUAAGGAAAGGGUGGGAUGGGAGUGGGUAAAGAGUU: 0.0304
CUCAAGUCCUGUGCUACACAUCGUAUGUACCGAAUCGGAAGGGAAGGAAGGGGAAAGUAUUAUGUUACGCCGUUCGGAUCUGCACUUCCA: 0.15
AGUCCUGUGCUACACAUCGUAUGUACCGAAUCGGGGUGGGGAGGGGAAAAAAAGGGGAAAGUAUUAUGUUACGCCGUUCGGAUCUGCACU: 0.539
CACAGACAACACGCACCCACACAUACACAGAGGGAAGGGGUUGGGAUGGGGACAGGGUGCACAGCAGGGCGGGGUAGGACCCCAGCCCCU: 1.31
CCUCAAGUCCUGUGCUACACAUCGUAUGUACCGAAUCGGAGGAAAGGUUUGGAAAGUAUUAUGUUACGCCGUUCGGAUCUGCACUUCCAG: -0.269
UGGGAGGUGGAUUUUGUUUAUUUUUUUAGCUCAUUUCCAGGGGUGGGAAUUUUUUUUUAAUAUGCGUCAUGAAUAAAGUUGUUUUUGAAA: 0.0603
CUGUGCUACACAUCGUAUGUACCGAAUCGGAAAAAAAGGGGAAAAAAAGGAAAAAAAGGGGAAAGUAUUAUGUUACGCCGUUCGGAUCUG: -0.928
CAAGUCCUGUGCUACACAUCGUAUGUACCGAAUCGGGGCCGGGGCCGGGGCCGGGGAAAGUAUUAUGUUACGCCGUUCGGAUCUGCACUU: -0.487

Study 3 — technique: RNA Bind-n-Seq; molecule type: RNA; medium: in vitro; concentration: 365 nM; baseline: no-protein control; reading: higher = stronger binding; measurement: RBNS enrichment (R)
Target: RNA binding protein fox-1 homolog 2, RRM domain, GST-SBP tag (RBFOX2, Homo sapiens, UniProt O43251-10, residues 100-194)
Setting: natural RNA segment, single round, ends assumed
All sequences stand within: GGGAGUUCUACAGUCCGACGAUC … UGGAAUUCUCGGGUGCCAA
Construct (chain): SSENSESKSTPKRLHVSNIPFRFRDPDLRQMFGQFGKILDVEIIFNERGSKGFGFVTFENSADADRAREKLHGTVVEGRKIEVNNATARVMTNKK
CGCCUGGCAUGGGACACCAAGUGGAAGGCCCAAGCAGCUCAUCUGCUCUUGGGACCAGGGGCCAGUUGGGUUGGGUCUGGUCACGGCAGAGCUAUUGUGGAGGGUCAGGA: 1.4
UCCAGGCCAGCACUUGGUCAUUUGAGAACUGUCUUCUGUGUUCUCUGUGACUUAGGCUAGCCCUAGGGUACUGAGGUGGCAGCUGCAUGGCUGUGGCCUGAAGUUGCACU: 0.225
AGAAAAAAACUGGUCAGCUCUAGCCAACAGUGAGGUUUCUUUUCUUCUGCCCUAACUAUUGUGUAGCCUCUUAUGCUGAAAUCGGCUUCUGCUGGCUUCUCCGGCUUUCA: 0.331
GCCUUCUGGCCUCCAGCUGGGCCAGGAAGCAAGGUGGGAACACCUCCUCGGCCUUGAAGGCCCAAUGACAGGCCUUGCCUCAAGGCCUUUCCUUCUCAGAGCCUCCUGAA: 0.186
GCAGUGAGCCCAGAGUGGAUUGGCAUUAAACUGGCUGCUUUGACACACCUCAUCUCACCCAAGAGUAUUUCCCAAGUCUGCAGCUUCCGUCAGCGAUUGUUGUGUUACCU: 0.232
ACUAAACAAGGUUUUUAUGAAUAAUAGCAUUGAUAUAUAUAUAUUAUAUAUCACCCUUUAGAUCUUGAUUUCUUGGUCAUUUCUCAACCUGAGGUGCAUAGCAUAUUCCC: 0.673
AUUUAAAGCUAUGAAGUCACCUGGAGAAAAGGAACGUUGCUCUUGGACAGCAAGCAAACCAUUUCUCUCCGUCUGUUCUGUUUUUCUCCUAGUCCCUCUCCUGCCACCUC: 0.643
UCACUAUAUAUCCCUGCAUAGAUUCCUAAUUAUGCCGUUUCUAAAUCUUAACCGAUUUCUUGAACAGUGUUUAAGUACAGUGUGAUUUGUGCCCCGAGACAGUCAGAACA: 0.464
GAAAAGGGUGCUCGGACUCUCUUAUACACAUGUGCUUUGUGUAAAUAAAUGUUUACAAUUUUAUAUUGAAGAUGGAAUAAGUGUUAGAGCGUCCAACUGUAUAUUUUUUA: 0.614
UGACUGUAAUACAGCCUUCAUUGUGCUAUUCAUCCCAUUGUUUGCUUCACUCUGUCUGUGUAAAAGCCAGGGCUAUUCCCGCUUAGAUGAUUGCUUAUUUAUGUGUAACA: 1.32
AAGCACCCUGCAGCCCUGCAGACACCCCCCCCCUCCAAGAGUGGGAGGCAGGGACCACAGAACUGUCCAGCCAACACGUCUGAACUGGAACUGUUCCACUUGAACCCGGG: 0.187
GCACUCUGAUUAGGAUAUCCACUUUGCAAAUAAAACCAAAUGUUUUGUCAACAUGAUGGUAAAAAGGAAAGAAAUCUGUUACAAAGACAAAUUAGAGGGAAAUUUGUCCU: 0.767

Study 4 — technique: protein binding microarray; molecule type: double-stranded DNA, one strand shown; medium: in vitro; concentration: not given; baseline: not given; reading: higher = stronger binding; measurement: E-score
Target: Histone acetyltransferase KAT6A, both winged helices, GST fusion (KAT6A, Homo sapiens, UniProt Q92794, residues 1-181)
Setting: 8-mer, flanks averaged, mean of 2 arrays, mostly near background
Residues (chain): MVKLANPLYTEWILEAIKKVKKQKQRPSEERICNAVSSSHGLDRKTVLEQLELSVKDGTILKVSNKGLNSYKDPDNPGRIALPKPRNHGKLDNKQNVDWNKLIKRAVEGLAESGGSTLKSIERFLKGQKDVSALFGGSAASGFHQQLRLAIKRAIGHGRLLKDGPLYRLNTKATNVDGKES
CGTTCAGA: 0.0445
CATTAGCG: 0.248
TCATCGGA: 0.0422
ACCCTAGA: -0.122
ACTACCAA: -0.0541
GTTCGGAA: 0.0126
GAGACCGA: 0.0407
CCGCCGTC: 0.271
CACTGCCG: 0.164
AGGTCGAT: 0.0261
CACGGTTA: 0.156
GAGGTCTA: -0.00869
AGTACGTA: -0.0768
ATGATCCA: -0.166
ACTAGGAC: -0.117
CGCACTGC: 0.222
CAAACGGC: 0.166
ATCCTTGA: -0.132
ACAACGCG: 0.19
ACACCTCA: -0.0541
GCCAGATA: -0.173
CAAACTAG: -0.143
ATTTTCCC: -0.0288
GCTAGTTA: 0.00404
CCCTCGGA: 0.0718

Study 5 — technique: universal PBM; molecule type: double-stranded DNA, one strand shown; medium: in vitro; concentration: not given; reading: higher = stronger binding; measurement: E-score
Target: Sal-like protein 4, full length isoform B (SALL4, Homo sapiens, UniProt Q9UJQ4-2, residues 1-616)
Setting: 8-mer, flanks averaged, mean of replicates
CCAGAAAA: 0.0422
ACCGAGCA: -0.265
GCGGCCGA: -0.231
ACCAGTAG: -0.0232
AGAAAACT: 0.0609
TGAGGCCA: -0.0821
GAGCCCTC: -0.297
ATTTTCAA: 0.293
AATTTCGG: 0.0843
CGCACGCA: -0.198
CACACTCC: -0.0504
ACGGGACC: -0.288
GGAATAAC: -0.00315
GCGTCGGA: -0.188
AACATCAG: 0.151
CACATGTG: 0.0506
ATCAGCCA: -0.205
ATTCTAGG: 0.146
CCAGAAGC: -0.218
GCTAAGCC: -0.156
GCACGGAC: -0.219
GGAGGTAA: 0.0607
CACGCAGG: -0.0624
CTAGAGGA: -0.0656
TAGAACAA: 0.223
